Experimental data from different studies.
Compare with care: the assays were run in different laboratories.
Effect on: metabolic stability
Species: human
Matrix: liver microsomes

SMILES	concentration	pH	microsomal CLint [µL/min/mg]
CCn1cc(-c2nc(C)no2)c(=O)c2cc(F)c(N3CCC(Cc4ccccc4)CC3)cc21	1 µM		102
Cc1cc(C)c(C#N)c(SCC(=O)N2CCOCC2)n1	0.5 µM	pH 7.4	32
COc1cc(CO)c(-c2ccc3c(c2O)[C@@H](C)N[C@H](C)C3)c2cccc(O)c12	1 µM		< 11.6
CCOC(=O)c1cn(CC)c2cc(N3CCC(Cc4ccccc4)CC3)c(F)cc2c1=O	1 µM		193
O=C(C[S+]([O-])Cc1ccco1)C12CC3CC(CC(C3)C1)C2 (stereo not drawn)			17.6
Cc1cc(C)c(C#N)c(SCC(=O)c2ccsc2)n1	0.5 µM	pH 7.4	541
CCNc1[nH]c(=O)n(O)c(=O)c1C(=O)NCc1ccc(C)c(F)c1			357
Cc1nnc(S(=O)(=O)CC(=O)C23CC4CC(CC(C4)C2)C3)s1			19
CCNc1[nH]c(=O)n(O)c(=O)c1C(=O)NCc1ccccc1			355
Cc1cc(C)c(C#N)c(OCC(=O)c2ccccc2)n1	0.5 µM	pH 7.4	342
CCNc1[nH]c(=O)n(O)c(=O)c1C(=O)NCc1ccc(F)cc1			336
COc1cccc(CCc2ccccc2OCC(CN(C)C)OC(=O)CCC(=O)O)c1 (racemic)	0.4 µM		17.4

Excerpt of the above:
SMILES	concentration	pH	microsomal CLint [µL/min/mg]
Cc1nnc(S(=O)(=O)CC(=O)C23CC4CC(CC(C4)C2)C3)s1			19
